Published values collected from several papers.
Protocols differ between the studies behind these lines. “And” joins repeats or separate records; there may be more than shown.
gyrA: DNA gyrase subunit A (gyrA, Escherichia coli K-12, UniProt P0AES4)
PFF0160c: Dihydroorotate dehydrogenase (quinone), mitochondrial (PFF0160c, Plasmodium falciparum, UniProt Q08210)
PFF0160c E182D: Dihydroorotate dehydrogenase (quinone), mitochondrial (PFF0160c, Plasmodium falciparum, UniProt Q08210, E182D)
HLA class I histocompatibility antigen, B alpha chain: HLA class I histocompatibility antigen, B alpha chain (Homo sapiens, UniProt P01889)
Sialidase-4: Sialidase-4 (Homo sapiens, UniProt Q8WWR8)
Sialidase-3: Sialidase-3 (Homo sapiens, UniProt Q9UQ49)

Structure (SMILES)	target	test	setting	quantity	value
Cn1c(=O)ccc2ccc(F)c(CCNC[C@H]3CN(c4ccc5c(n4)NC(=O)CO5)C(=O)O3)c21	gyrA	enzyme activity, inhibitor		IC50	0.034 µM
CC[C@](N)(c1cnc(C(F)(F)F)c(Cl)c1)c1c2ccn(C3CC3)c(=O)c2nn1C	PFF0160c	enzyme activity, inhibitor		IC50	15.8 µM
[2H]c1c([2H])c([C@]2([2H])CCCN2C(=O)C(C)(C)Oc2ccc3cn[nH]c3c2)c([2H])c([2H])c1C([2H])([2H])[2H]	HIPK3 (Homo sapiens, UniProt Q9H422)	binding, competition with immobilised ligand	1 µM	remaining binding	97%
CN1C(=O)Cc2ccc(F)c(CNCCCC3CN(c4ccc5c(n4)NC(=O)CO5)C(=O)O3)c21 (stereo not drawn)	KCNH2 (Homo sapiens, UniProt Q12809)	ion current, inhibitor, patch clamp	2 min, pH 7.4	IC50	9 µM
Cc1c(Cc2ccc(C(F)(F)F)cc2)n[nH]c1C(=O)NC1CC1	PFF0160c	enzyme activity, inhibitor, absorbance		IC50	89 µM
O=C(O)C(F)(F)C(F)(F)C(F)(F)C(F)(F)C(F)(F)C(F)(F)C(F)(F)F	AKR1C3 (Homo sapiens, UniProt P42330)	enzyme activity, inhibitor, fluorescence		IC50	11.2 µM
Cc1nc2c(=O)sc3ccccc3c2n1Cc1ccccc1	PFF0160c E182D	enzyme activity, inhibitor, absorbance		IC50	0.0978 µM
CSCC[C@H](NC(=O)[C@@H](N)CCCNC(=N)N)C(=O)N[C@@H](Cc1ccc(O)cc1)C(=O)N[C@@H](CC(=O)O)C(=O)N[C@@H](CCCNC(=N)N)C(=O)N[C@@H](Cc1c[nH]cn1)C(=O)N[C@@H](Cc1ccc(O)cc1)C(=O)N[C@@H](CC(C)C)C(=O)N[C@@H](Cc1ccccc1)C(=O)O	HLA class I histocompatibility antigen, B alpha chain	cell-free assay		IC50	37.3 µM
CCCCCC(=O)N(C)[C@H]1[C@H]([C@H](O)[C@H](O)CO)OC(C(=O)O)=C[C@@H]1O	Sialidase-4	enzyme activity, inhibitor		IC50	300 µM
CCCN(Cc1nnc(-c2cccs2)o1)C(=O)C1COc2ccccc2O1 (stereo not drawn)	PFF0160c E182D	enzyme activity, inhibitor, absorbance		IC50	2.14 µM
CC(C)(C)CC(=O)N[C@H]1[C@H]([C@H](O)[C@H](O)CO)OC(C(=O)O)=C[C@@H]1O	Sialidase-4	enzyme activity, inhibitor		IC50	300 µM
CCn1cc(C)c2c(Cc3ccc(C(F)(F)F)nc3)n(C)nc2c1=O	PFF0160c	enzyme activity, inhibitor		IC50	0.0631 µM
CC[C@H](C)[C@H](NC(C)=O)C(=O)N[C@@H](CCC(=O)O)C(=O)N[C@H](C(=O)N[C@H](C=O)CC(=O)O)[C@@H](C)O	Caspase-8 (CASP8, Homo sapiens, UniProt Q14790)	enzyme activity, inhibitor		IC50	0.00163 µM
CCC1(c2ccccc2)NC(=O)N(NC(=O)c2ccc3noc(-c4ccccc4)c3c2)C1=O (stereo not drawn)	PFF0160c E182D	enzyme activity, inhibitor, absorbance		IC50	6.11 µM
Cn1nc2c(=O)n(C3CC3)ncc2c1[C@](N)(c1ccc(C(F)(F)F)c(Cl)c1)C1CC1	PFF0160c	enzyme activity, inhibitor		IC50	0.0158 µM
COc1cc(CCC(=O)N2CCC(Cc3ccccc3)CC2)ccc1OC(=O)N1CCOCC1	Cholinesterase (BCHE, Homo sapiens, UniProt P06276)	enzyme activity, inhibitor, Ellman		IC50	7.9 µM
Cn1c(=O)ccc2ccc(F)c(CCNC[C@H]3CN(c4cnc5c(n4)NC(=O)CO5)C(=O)O3)c21	gyrA	enzyme activity, inhibitor		IC50	0.0046 µM
O=C(NC1CC1)c1ccc(N2CCOc3ccc(Cl)cc32)s1	PFF0160c	enzyme activity, inhibitor, absorbance		IC50	0.322 µM
CCN(C)C(=O)Oc1ccc(CCC(=O)N2CCN(Cc3ccccc3)CC2)cc1OC	Cholinesterase (BCHE, Equus caballus, UniProt P81908)	enzyme activity, inhibitor, Ellman		IC50	10.8 µM
CC(C)[C@H](NC(=O)[C@@H](N)CCCCN)C(=O)N[C@@H](CC(=O)O)C(=O)N1CCC[C@H]1C(=O)N[C@@H](CCCCN)C(=O)N[C@@H](Cc1ccccc1)C(=O)N[C@H](C(=O)N[C@@H](CO)C(=O)N[C@@H](Cc1ccccc1)C(=O)O)[C@@H](C)O	HLA class I histocompatibility antigen, B alpha chain	cell-free assay		IC50	37.3 µM
CCCCCC(=O)N[C@H]1[C@H]([C@H](O)[C@H](O)CO)OC(C(=O)O)=C[C@@H]1O	Sialidase-4	enzyme activity, inhibitor		IC50	> 500 µM

Structure (SMILES)	target	test	setting	quantity	value
c1ccc2[nH]c(Nc3ccc(Nc4nc5ccccc5[nH]4)cc3)nc2c1	PFF0160c E182D	enzyme activity, inhibitor, absorbance		IC50	1.54 µM
Cc1cn(C2CC2)c(=O)c2nn(C)c(Cc3ccc(C(F)(F)F)nc3)c12	PFF0160c	enzyme activity, inhibitor		IC50	0.0794 µM
Cc1cc(Nc2ccc(C)c(Cl)c2)n2ncnc2n1	PFF0160c	enzyme activity, inhibitor, absorbance		IC50	0.495 µM
COc1ccc2c3c([nH]c2c1)CCN(C)CC3	Voltage-dependent N-type calcium channel subunit alpha-1B (Homo sapiens, UniProt Q00975)	ion current, inhibitor, patch clamp		IC50	262 µM and > 180 µM
CC[C@@](N)(c1cnc(C(F)(F)F)c(Cl)c1)c1c2ncn(C3CC3)c(=O)c2nn1C	PFF0160c	enzyme activity, inhibitor		IC50	0.0501 µM
Cc1nc(Nc2ccc(S(F)(F)(F)(F)F)cc2)c2c(C)noc2n1	PFF0160c E182D	enzyme activity, inhibitor, absorbance		IC50	0.951 µM
CC(C)C[C@H](NC(=O)[C@H](Cc1ccccc1)NC(=O)[C@H](Cc1ccc(O)cc1)NC(=O)CNC(=O)[C@H](CCCCN)NC(=O)[C@H](CO)NC(=O)[C@H](CCC(N)=O)NC(=O)CNC(=O)[C@@H](NC(=O)[C@H](CO)NC(=O)[C@@H]1CCCN1C(=O)[C@H](CO)NC(=O)[C@H](CCC(N)=O)NC(=O)[C@H](Cc1ccc(O)cc1)NC(=O)[C@H](CCC(=O)O)NC(=O)[C@H](C)NC(=O)[C@H](CCCCN)NC(=O)[C@@H](N)Cc1ccccc1)C(C)C)C(=O)N[C@@H](Cc1ccccc1)C(=O)N[C@@H](CCCNC(=N)N)C(=O)N1CCC[C@H]1C(=O)N[C@@H](CCCNC(=N)N)C(=O)N[C@@H](CC(N)=O)C(N)=O	NMUR2 (Homo sapiens, UniProt Q9GZQ4)	ligand displacement, radioligand		IC50	4.07e-05 µM
Cn1nccc1[C@]1(CNC(=O)c2ccc(F)c(F)c2-c2ccc(C(F)(F)F)cc2)NC(=O)NC1=O	CAPN1 (Homo sapiens, UniProt P07384)	enzyme activity, inhibitor		IC50	> 100 µM
CCN(CC)C(=O)Oc1ccc(CCC(=O)N2CCC(Cc3ccccc3)CC2)cc1OC	Cholinesterase (BCHE, Equus caballus, UniProt P81908)	enzyme activity, inhibitor, Ellman		IC50	2.8 µM
O=C(O)C1=C[C@H](O)[C@@H](n2cc(-c3ccc(-c4ccccc4)cc3)nn2)[C@H]([C@H](O)[C@H](O)CO)O1	Sialidase-3	enzyme activity, inhibitor		IC50	> 500 µM
CCN(C)C(=O)Oc1ccc(CCC(=O)N2CCC(Cc3ccccc3)CC2)cc1OC	Cholinesterase (BCHE, Equus caballus, UniProt P81908)	enzyme activity, inhibitor, Ellman		IC50	2.3 µM
O=C(O)C1=C[C@H](O)[C@@H](NCc2ccc(-c3ccccc3)cc2)[C@H]([C@H](O)[C@H](O)CO)O1	Sialidase-3	enzyme activity, inhibitor		IC50	> 500 µM
CC[C@H](C)[C@H](NC(=O)[C@@H]1CCCN1C(=O)CNC(=O)[C@@H]1CCCN1C(=O)[C@H](Cc1ccc(O)cc1)NC(=O)[C@H](CC(C)C)NC(=O)[C@@H](N)CCCCN)C(=O)N[C@@H](CC(C)C)C(=O)N[C@@H](CCSC)C(=O)O	HLA class I histocompatibility antigen, B alpha chain	cell-free assay		IC50	35.6 µM
CC(C)(C)OC(=O)N1CCN(C(=O)n2cc(-c3ccc(OC(F)(F)F)cc3)nn2)C(Cc2ccccc2)C1 (stereo not drawn)	Diacylglycerol lipase-beta (Mus musculus, UniProt Q91WC9)	enzyme activity, inhibitor		IC50	0.0081 µM
Cn1nc2c(=O)n(C3CC3)ccc2c1Cc1ccc(C(F)(F)F)nc1	PFF0160c	enzyme activity, inhibitor		IC50	1 µM
CC[C@H](C)[C@H](NC(=O)[C@@H](N)Cc1c[nH]cn1)C(=O)N[C@@H](Cc1ccccc1)C(=O)N[C@@H](CO)C(=O)N[C@@H](CCCNC(=N)N)C(=O)N1CCC[C@H]1C(=O)N[C@@H](CCSC)C(=O)N[C@H](C(=O)N[C@@H](Cc1ccccc1)C(=O)O)[C@@H](C)O	HLA class I histocompatibility antigen, B alpha chain	cell-free assay		IC50	8.21 µM
CCn1cc(C)c2c([C@H](O)c3ccc(C(F)(F)F)nc3)n(C)nc2c1=O	PFF0160c	enzyme activity, inhibitor		IC50	0.0794 µM
CSCC[C@H](NC(=O)[C@@H](NC(=O)[C@H](CC(C)C)NC(=O)[C@@H](NC(=O)[C@H](CCCCN)NC(=O)[C@H](CC(N)=O)NC(=O)[C@H](Cc1ccc(O)cc1)NC(=O)[C@H](CCSC)NC(=O)[C@@H](N)CCCNC(=N)N)[C@@H](C)O)[C@@H](C)O)C(=O)O	HLA class I histocompatibility antigen, B alpha chain	cell-free assay		IC50	64.5 µM
CC(C)CNC(=O)N[C@H]1[C@H]([C@H](O)[C@H](O)CO)OC(C(=O)O)=C[C@@H]1O	Sialidase-4	enzyme activity, inhibitor		IC50	50 µM
Cn1nc(C(=O)N2CCC(c3[nH]ncc3Cc3ccccc3)CC2)c2ccccc2c1=O	PFF0160c E182D	enzyme activity, inhibitor, absorbance		IC50	0.8 µM
O=C(/C=C/c1ccc(OC(=O)N2CCCC2)cc1)NC1CCN(Cc2ccccc2)CC1	Cholinesterase (BCHE, Equus caballus, UniProt P81908)	enzyme activity, inhibitor, Ellman		IC50	20.3 µM

Repeated from above:
Structure (SMILES)	target	test	setting	quantity	value
Cn1c(=O)ccc2ccc(F)c(CCNC[C@H]3CN(c4ccc5c(n4)NC(=O)CO5)C(=O)O3)c21	gyrA	enzyme activity, inhibitor		IC50	0.034 µM
CC[C@](N)(c1cnc(C(F)(F)F)c(Cl)c1)c1c2ccn(C3CC3)c(=O)c2nn1C	PFF0160c	enzyme activity, inhibitor		IC50	15.8 µM
[2H]c1c([2H])c([C@]2([2H])CCCN2C(=O)C(C)(C)Oc2ccc3cn[nH]c3c2)c([2H])c([2H])c1C([2H])([2H])[2H]	HIPK3 (Homo sapiens, UniProt Q9H422)	binding, competition with immobilised ligand	1 µM	remaining binding	97%
